Published values pooled from the literature.
Protocols differ between the studies behind these lines. ± marks the error that the study gave.

`Cc1nn(C)cc1S(=O)(=O)NC(=O)c1ccc(-n2ccc(OCC(C)(C)C(F)(F)F)n2)nc1N1C[C@@H](C)CC1(C)C` has a Cmax of 3900 ng/mL (human, plasma; oral, standard ETI dose).
`CN[C@H](CC(C)C)C(=O)N[C@H]1C(=O)N[C@@H](CC(N)=O)C(=O)N[C@H]2C(=O)N[C@H]3C(=O)N[C@H](C(=O)N[C@H](C(=O)O)c4cc(O)cc(O)c4-c4cc3ccc4O)[C@H](O)c3ccc(c(Cl)c3)Oc3cc2cc(c3O[C@@H]2O[C@H](CO)[C@@H](O)[C@H](O)[C@H]2O[C@H]2C[C@](C)(N)[C@H](O)[C@H](C)O2)Oc2ccc(cc2Cl)[C@H]1O` gave a Cmax of 33000 ng/mL (guinea pig, serum; intraperitoneal, 15 mg/kg single).
`O=C(c1cccnc1-c1ccncc1)N1CCC(O)(Cc2ccccc2)CC1` gave a Cmax of 980 ng/mL (healthy Japanese adults, plasma; oral, 200 mg twice daily, day 14).
With `C[C@@H]1CCO[C@H]2Cn3cc(C(=O)NCc4ccc(F)cc4F)c(=O)c(O)c3C(=O)N12` the Cmax was 7100 ng/mL (population PK, post-hoc; children, 6 to <10 kg, plasma; oral, 20 mg dispersible tablet, steady state, geometric mean).
For `CCCCCCCOc1ccc(CCC(N)(CO)CO)cc1C(F)(F)F.Cl`, the Cmax was 0.0441 ng/mL (healthy men, plasma; oral, 0.125 mg, day 1).
`C=CC(=O)NC1CCN(c2ncc3ncnc(Nc4ccc(Oc5ccc6c(c5)ncn6C)c(C)c4)c3n2)CC1` gave a Cmax of 0.516 µM (healthy men; oral, 60 mg single dose, added: carbamazepine).
For `CCCCCCCCCCCCCCCC(=O)N[C@@H](CCC(=O)NCCCC[C@@H]1NC(=O)[C@H]([C@@H](C)CC)NC(=O)[C@@H](NC(=O)[C@@H]2CCCN2C(=O)[C@H](Cc2ccccc2)NC(=O)[C@H](Cc2c[nH]cn2)NC(=O)[C@@H](NC(=O)[C@H](CC(=O)O)NC(=O)CC(C)C)[C@@H](C)O)CSSC[C@@H](C(=O)N[C@@H](CCCCN)C(N)=O)NC(=O)CNC(=O)[C@H](CCCCN)NC(=O)[C@H](CO)NC(=O)[C@H](CCCNC(=N)N)NC(=O)[C@@H]2CCCN2C(=O)[C@H](CCC(=O)O)NC(=O)[C@H](Cc2ccccc2)NC1=O)C(=O)O`, the Cmax was 460 ± 106 ng/mL (healthy volunteers, plasma; subcutaneous, 45 mg single, lyophilised formulation).
`CCCS(=O)(=O)N[C@H]1C[C@@H](N(C)c2ncnc3[nH]ccc23)C1` gave a Cmax of 420 ng/mL (healthy volunteers, plasma, total; oral, 100 mg single dose, alone).
`O=C(Nc1cnccc1Cl)N1CCN(Cc2ccc3c(c2)OC(F)(F)O3)CC1` has a Cmax of 78.9 ng/mL (healthy young men, plasma; oral, 10 mg once daily, day 10).
`Oc1ccc([C@@H](O)c2cc(-c3ncnc4cc(N5CCOCC5)ccc34)c(F)cc2Cl)nn1` has a Cmax of 91.6 ng/mL (geometric mean; healthy volunteers, plasma; oral, 100 mg, fasted tablet).
With `N[C@@H](CC(=O)N1CCc2c(nc(C(F)(F)F)nc2C(F)(F)F)C1)CN1CC(F)(F)CCC1=O` the Cmax was 103 ± 31.5 ng/mL (healthy Korean adults, fasted, plasma; oral, 50 mg single dose, separate tablets, added: enavogliflozin 0.3 mg).
The Cmax of `CCc1nc(C(N)=O)c(Nc2ccc(N3CCC(N4CCN(C)CC4)CC3)c(OC)c2)nc1NC1CCOCC1` is reported as 1460 ng/mL (patients, plasma; oral, 200 mg once daily, cycle 1 day 15, median).
The Cmax of `CNC(=O)c1ccc(-c2cnc3ncc(Cc4ccc5ncccc5c4)n3n2)cc1F` is reported as 4020 ng/mL (Japanese patients, plasma; oral, 400 mg twice daily, cycle 1 day 1, fasting).
For `O=C(c1ccccc1)c1ccc2n1CCC2C(=O)O` (stereo not drawn), the Cmax was 10900 ± 480 ng/mL (New Zealand White rabbit, male, plasma; oral, 10 mg/kg drug equivalent).
`C[C@H]1[C@H]2N(C(=O)CN(C)N2C(=O)NCc2ccccc2)[C@@H](Cc2ccc(OP(=O)(O)O)cc2)C(=O)N1Cc1cccc2cccnc12` gave a Cmax of 1950 ng/mL (patients, plasma; intravenous infusion, 280 mg/m2 over 4 h, mean).
The Cmax of `Cc1c(C(=O)O)ccc2c3n(nc12)[C@@H]1[C@H](C3)N(CC2CC2)[C@@]2(C(=O)Nc3cc(Cl)ccc32)[C@H]1c1cccc(Cl)c1F` is reported as 2.88 µM (cancer patients, plasma; oral, 45 mg day 1 every 3 weeks, geometric mean, cycle 1).
`CNC(=O)c1cc(Oc2ccc(NC(=O)Nc3ccc(Cl)c(C(F)(F)F)c3)cc2)cc[n+]1[O-]` has a Cmax of 1460 ng/mL (patients, plasma; oral, 400 mg twice daily, steady state, geometric mean, added: rifampin 600 mg oral).
For `COc1nnc2ccc(N3CCC(c4ccc(OCCN5CCN(C)C(=O)[C@H]5C)cc4)CC3)nn12`, the Cmax was 0.0481 µM (patients, plasma; oral, 10 mg twice daily, multiple dose, monotherapy).
`COc1c(O)cc(C(=O)O)cc1O` gave a Cmax of 0.1 ± 0.02 µM (broiler chickens, serum; oral, in feed, 2000 mg/kg feed, 24 h, corn diet with tannins).
The Cmax of `C[C@@H](N)C1CCN(S(=O)(=O)c2cccc3cnccc23)CC1` is reported as 34.9 ng/mL (healthy volunteers, fasted, plasma; oral, 150 mg).
`C=C(F)C(=O)N1CCN(c2nc(OC[C@@H]3CCCN3C)nc3c2CCN(c2cccc4cccc(Cl)c24)C3)C[C@@H]1CC#N` has a Cmax of 558 ng/mL (cancer patients, plasma; 600 mg).
The Cmax of `Cc1ccc2c(c1)C(=O)[C@]1(O)CCN(c3ccc4nc(C)ccc4c3)C1=N2.Cl` is reported as 5.45 ± 0.18 µM (plasma; intravenous, 2 mg/kg).
With `CC[C@H](Nc1ncnc2[nH]cnc12)c1oc2ccccc2c(=O)c1-c1cccc(F)c1` the Cmax was 2150 ± 749 ng/mL (patients, Cohort-2, plasma; oral, 600 mg twice daily, added: romidepsin 12 mg/m2).
The Cmax of `CC(=O)Nc1ccc(C[C@H](NC(=O)[C@H](CO)NC(=O)[C@@H](Cc2cccnc2)NC(=O)[C@@H](Cc2ccc(Cl)cc2)NC(=O)[C@@H](Cc2ccc3ccccc3c2)NC(C)=O)C(=O)N[C@H](Cc2ccc(NC(C)=O)cc2)C(=O)N[C@@H](CC(C)C)C(=O)N[C@@H](CCCCNC(C)C)C(=O)N2CCC[C@H]2C(=O)N[C@H](C)C(N)=O)cc1` is reported as 20.7 ± 18.6 ng/mL (healthy men, fasted, serum; oral, 20 mg single dose).
`N[C@@H](Cc1ccc(O)c(O)c1)C(=O)O` has a Cmax of 6.46 µM (Parkinson's disease patients, plasma; oral, low carbidopa AUC subgroup (11.5 µmol·h/L), median).
With `CC[C@H](C)CCCCC(=O)N[C@@H](CCN)C(=O)N[C@H](C(=O)N[C@@H](CCN)C(=O)N[C@H]1CCNC(=O)[C@H]([C@@H](C)O)NC(=O)[C@H](CCN)NC(=O)[C@H](CCN)NC(=O)[C@H](CC(C)C)NC(=O)[C@@H](Cc2ccccc2)NC(=O)[C@H](CCN)NC1=O)[C@@H](C)O` the Cmax was 3600 ng/mL (LC-MS/MS; mild renal impairment, plasma; intravenous infusion, 0.75 mg/kg single dose over 1 h, arithmetic mean).
The Cmax of `CCNC(=O)[C@@H]1CCCN1C(=O)[C@H](CCCNC(=N)N)NC(=O)[C@H](CC(C)C)NC(=O)[C@@H](CC(C)C)NC(=O)[C@H](Cc1ccc(O)cc1)NC(=O)[C@H](CO)NC(=O)[C@H](Cc1c[nH]c2ccccc12)NC(=O)[C@H](Cc1c[nH]cn1)NC(=O)[C@@H]1CCC(=O)N1` is reported as 2.7 ± 3.6 ng/mL (healthy premenopausal women, plasma; oral, 4 mg once daily, day 29).
For `OC[C@H]1O[C@@H](c2ccc(F)c(Cc3cc4ccccc4s3)c2)[C@H](O)[C@@H](O)[C@@H]1O`, the Cmax was 1230 ± 289 ng/mL (Japanese type 2 diabetes patients, plasma; oral, 50 mg/day, day 1).
For `C#C[C@]1(O)CC[C@H]2[C@@H]3CCC4=CC(=O)CC[C@@H]4[C@H]3CC[C@@]21C`, the Cmax was 2.76 ng/mL (radioimmunoassay; HIV-infected women on protease inhibitor therapy, serum; oral, 0.35 mg, steady state, geometric mean).
For `CCc1nc2c(C)cc(N3CCN(CC(=O)N4CC(O)C4)CC3)cn2c1N(C)c1nc(-c2ccc(F)cc2)c(C#N)s1`, the Cmax was 7500 ng/mL (healthy volunteers, fed, plasma; oral, 600 mg single dose, day 1, capsule).
`C[C@H]1CN(C(=O)CC#N)[C@]12CCN(c1ncnc3[nH]ccc13)C2` gave a Cmax of 9.38 ng/mL (healthy adults, plasma; oral, 1.5 mg single dose, median).
`C[C@@](Cc1ccc(O)c(O)c1)(NN)C(=O)O` gave a Cmax of 75 ng/mL (female Parkinson's disease patients, plasma; oral, dose not given, median).
With `C=CC(=O)NC1CCN(c2ncc3ncnc(Nc4ccc(Oc5ccc6c(c5)ncn6C)c(C)c4)c3n2)CC1` the Cmax was 0.000498 µM (refers to: total radioactivity; healthy male volunteers, plasma; intravenous, 100 µg, 14C microtracer, geometric mean).
`C[C@H](NC(=O)/C(C#N)=C/c1cccc(Br)n1)c1ccccc1` gave a Cmax of 32.6 ng/mL (LC-MS/MS; patients, plasma; oral, 1 mg/kg, cycle 1 day 1).
The Cmax of `O=C(O)c1cc(O)c(O)c(O)c1` is reported as 0.35 ± 0.09 µM (broiler chickens, serum; oral, in feed, 2000 mg/kg feed, 24 h, wheat diet, no tannins).
The Cmax of `COC(=O)c1ccc2c(c1)NC(=O)/C2=C(\Nc1ccc(N(C)C(=O)CN2CCN(C)CC2)cc1)c1ccccc1` is reported as 34.2 ng/mL (healthy volunteers, plasma; oral, 150 mg, added: pirfenidone).
`CC(=O)N[C@H]1CC[C@H](NC(=O)CN2CCN(c3nncc(-c4ccc(C)cc4)n3)CC2)CC1` has a Cmax of 1020 ng/mL (men aged ≥65 years, plasma; oral, 100 mg single dose, study).
`N[C@@H]1c2ccccc2OC12CCN(c1cnc3c(N4CCCc5ncccc54)n[nH]c3n1)CC2` gave a Cmax of 1070 ng/mL (advanced metastatic solid tumour patients, plasma; oral, 100 mg once daily, cycle 1 day 15, geometric mean).
`Cc1ccc(C(=O)NC2CC2)cc1-n1ncc(C(=O)c2cccc(C#N)c2)c1N` gave a Cmax of 118 ng/mL (healthy volunteers; oral, 10 mg single dose, mean observed).

Some of these lines once more:
The Cmax of `CCNC(=O)[C@@H]1CCCN1C(=O)[C@H](CCCNC(=N)N)NC(=O)[C@H](CC(C)C)NC(=O)[C@@H](CC(C)C)NC(=O)[C@H](Cc1ccc(O)cc1)NC(=O)[C@H](CO)NC(=O)[C@H](Cc1c[nH]c2ccccc12)NC(=O)[C@H](Cc1c[nH]cn1)NC(=O)[C@@H]1CCC(=O)N1` is reported as 2.7 ± 3.6 ng/mL (healthy premenopausal women, plasma; oral, 4 mg once daily, day 29).
For `OC[C@H]1O[C@@H](c2ccc(F)c(Cc3cc4ccccc4s3)c2)[C@H](O)[C@@H](O)[C@@H]1O`, the Cmax was 1230 ± 289 ng/mL (Japanese type 2 diabetes patients, plasma; oral, 50 mg/day, day 1).
For `C#C[C@]1(O)CC[C@H]2[C@@H]3CCC4=CC(=O)CC[C@@H]4[C@H]3CC[C@@]21C`, the Cmax was 2.76 ng/mL (radioimmunoassay; HIV-infected women on protease inhibitor therapy, serum; oral, 0.35 mg, steady state, geometric mean).
For `CCc1nc2c(C)cc(N3CCN(CC(=O)N4CC(O)C4)CC3)cn2c1N(C)c1nc(-c2ccc(F)cc2)c(C#N)s1`, the Cmax was 7500 ng/mL (healthy volunteers, fed, plasma; oral, 600 mg single dose, day 1, capsule).
`C[C@H]1CN(C(=O)CC#N)[C@]12CCN(c1ncnc3[nH]ccc13)C2` gave a Cmax of 9.38 ng/mL (healthy adults, plasma; oral, 1.5 mg single dose, median).
`C[C@@](Cc1ccc(O)c(O)c1)(NN)C(=O)O` gave a Cmax of 75 ng/mL (female Parkinson's disease patients, plasma; oral, dose not given, median).
